Experimental data pooled from the literature.
Protocols differ between the studies behind these lines. ± gives the spread as reported.
Sequence of UniProt P37136 (whole entry, looked up): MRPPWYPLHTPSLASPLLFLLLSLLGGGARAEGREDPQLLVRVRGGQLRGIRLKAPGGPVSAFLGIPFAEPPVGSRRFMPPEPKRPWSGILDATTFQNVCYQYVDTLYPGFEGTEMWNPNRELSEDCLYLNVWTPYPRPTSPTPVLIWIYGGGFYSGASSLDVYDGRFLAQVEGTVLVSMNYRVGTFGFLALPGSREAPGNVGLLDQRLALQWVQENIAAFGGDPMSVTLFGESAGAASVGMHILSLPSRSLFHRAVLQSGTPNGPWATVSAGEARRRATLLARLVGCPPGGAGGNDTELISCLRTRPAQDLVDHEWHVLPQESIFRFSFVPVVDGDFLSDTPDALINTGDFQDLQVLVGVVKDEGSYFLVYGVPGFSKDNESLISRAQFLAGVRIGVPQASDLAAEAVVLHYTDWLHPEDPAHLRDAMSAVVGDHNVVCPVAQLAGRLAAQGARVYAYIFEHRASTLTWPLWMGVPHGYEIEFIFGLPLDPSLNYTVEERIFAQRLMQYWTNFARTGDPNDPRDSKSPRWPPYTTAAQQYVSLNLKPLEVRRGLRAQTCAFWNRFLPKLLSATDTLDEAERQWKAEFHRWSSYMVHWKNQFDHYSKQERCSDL

Under “subjects with presyncope”, `deucravacitinib` is recorded as 2.2% (multiple ascending dose; healthy human; oral, all doses pooled).
`phoxim-oxon` has an IC50 of 24 nM (Ache (Rattus norvegicus, UniProt P37136); enzyme activity, inhibitor, Ellman; rat, postnatal day 1, lung homogenate; 15 min, 37 °C).
For `chicoric acid`, the AUC(0-t) was 416 ± 128 ng·h/mL (UPLC; broiler chicken, plasma; oral gavage, 20 mg/kg).
`semaglutide`: “participants with adverse events” 26% (refers to: not recovered or resolved; human, safety analysis set; concentration not given, 32 weeks, run-in).
For `maraviroc`, the Tmax was 2.01 h (white CYP3A5 poor metabolizers, plasma; 300 mg twice daily).
